Measured values gathered from unrelated publications.
Protocols differ between the studies behind these lines. Values joined by “and” are separate records of one study, mostly repeats; a detail may differ. Numbers after ± are the reported error.

SMILES | assay | test system | setting | AUC(0-t)
O=C(NC[C@H](O)CO)c1ccncc1Nc1ccc(I)cc1F | – | patients, plasma | oral, 45 mg single dose, day 8, median, alone | 1270 ng·h/mL
CCCN1CC(c2ccc(S(C)(=O)=O)cc2)=C(c2ccc(C)cc2)C1=O | – | healthy Chinese, non-elderly, plasma | oral, 100 mg | 137 ng·h/mL
CCC[C@H](N[C@@H](C)C(=O)N1[C@H](C(=O)O)C[C@@H]2CCCC[C@@H]21)C(=O)OCC | – | healthy Chinese volunteers, plasma | oral, 4 mg, up to 6 h, fasting, with: indapamide 1.25 mg | 51.4 ± 12.8 ng·h/mL
Cc1nc(Nc2ncc(C(=O)Nc3c(C)cccc3Cl)s2)cc(N2CCN(CCO)CC2)n1 | – | patients, plasma | oral, 200 mg, day 0, given alone, geometric mean | 1450 ng·h/mL
Cc1ccc(NC(=O)c2ccc(CN3CCN(C)CC3)cc2)cc1Nc1nccc(-c2cncc(-c3oncc3C)c2)n1 | – | healthy volunteers, plasma | oral, 200 mg once daily, day 1, 7-day dosing, mean | 87200 ng·h/mL
O=C(O)C[C@H](O)C[C@H](O)/C=C/c1c(C2CC2)nc2ccccc2c1-c1ccc(F)cc1 | – | healthy Chinese male volunteers, plasma | oral, 2 mg once daily, multiple dose | 289 ng·h/mL
NC(=O)c1cnc2[nH]ccc2c1N[C@@H]1[C@@H]2CC3C[C@H]1C[C@@](O)(C3)C2 | – | healthy Caucasian men, plasma | oral, 60 mg, single dose fasted | 524 ng·h/mL
CC#CC(=O)N1CCC[C@H]1c1nc(-c2ccc(C(=O)Nc3ccccn3)cc2)c2c(N)nccn12 | – | Japanese patients, plasma | oral, 100 mg single dose, fasting, geometric mean | 962 ng·h/mL
Cc1nc(-c2ccc(OCC(C)C)c(C#N)c2)sc1C(=O)O | – | healthy Chinese adult volunteers, plasma | oral, 80 mg single dose, fasting | 15400 ± 3220 ng·h/mL
CC(C)=CCC[C@](C)(O[C@@H]1O[C@H](CO)[C@@H](O)[C@H](O)[C@H]1O)[C@H]1CC[C@]2(C)[C@@H]1[C@H](O)C[C@@H]1[C@@]3(C)CC[C@H](O[C@@H]4O[C@H](CO)[C@@H](O)[C@H](O)[C@H]4O)C(C)(C)[C@@H]3CC[C@]12C | LC-MS/MS | healthy male volunteers, serum | oral, 3 g red ginseng | 2.98 ± 2.01 ng·h/mL
O=C(N[C@H]1CCN(CC2CC2)C[C@@H]1C(=O)NC1(c2ncccn2)CC1)c1cc(-c2ccc(F)cc2F)on1 | – | healthy male subjects | oral, 10 mg, fed, geometric mean, with: itraconazole 200 mg multiple doses | 862 ng·h/mL
C#C[C@]1(O)CC[C@H]2[C@@H]3CCC4=CC(=O)CC[C@@H]4[C@H]3CC[C@@]21CC | – | HIV-positive women, control arm, serum | oral, 150 µg with ethinylestradiol, 72 h, steady state | 243 ± 83 ng·h/mL
Nc1nnc(CN[C@@H]2C[C@H]2c2ccc(OCc3ccccc3)cc2)o1 | – | healthy young adults | oral, 1.0 mg/day, day 1, multiple dose, mean | 95.1 ng·h/mL
CNC(=O)c1ccc(-c2cnc3ncc(Cc4ccc5ncccc5c4)n3n2)cc1F | – | severe hepatic impairment | oral, 200 mg, geometric mean | 7710 ng·h/mL
Cc1[nH]c(/C=C2\C(=O)Nc3ccccc32)c(C)c1CCC(=O)O | – | Japanese patients, plasma | oral, 1200 mg/m^2, day 1 | 76600 ± 1000 ng·h/mL
CC(C)=CCC[C@](C)(O[C@@H]1O[C@H](CO)[C@@H](O)[C@H](O)[C@H]1O)[C@H]1CC[C@]2(C)[C@@H]1[C@H](O)C[C@@H]1[C@@]3(C)CC[C@H](O[C@@H]4O[C@H](CO)[C@@H](O)[C@H](O)[C@H]4O[C@@H]4O[C@H](CO)[C@@H](O)[C@H](O)[C@H]4O)C(C)(C)[C@@H]3CC[C@]12C | LC-MS/MS | healthy volunteers, serum | oral, 3 g red ginseng | 7.85 ± 11.2 ng·h/mL
CC1Cc2ccccc2N1NC(=O)c1ccc(Cl)c(S(N)(=O)=O)c1 (stereo not drawn) | – | healthy Chinese volunteers, plasma | oral, 1.25 mg, up to 48 h, fasting, with: perindopril tert-butylamine 4 mg | 254 ± 83.8 ng·h/mL
O=C(c1cc(Cl)c(O)c(Cl)c1)N1CS(=O)(=O)c2ccccc21 | – | healthy Chinese adults, fasted, plasma | oral, 10 mg single dose | 12900 ± 2130 ng·h/mL
Cc1cc(-c2ccn3c(-c4ccc(CC(=O)Nc5cccc(C(F)(F)F)c5)c(F)c4)cnc3c2)ccn1 | – | human | oral, 50 mg once daily, multiple doses, visit 1 | 12800 ng·h/mL and 12700 ng·h/mL and 11300 ng·h/mL
C#C[C@]1(O)CC[C@H]2[C@@H]3CCc4cc(O)ccc4[C@H]3CC[C@@]21C | – | HIV-positive women, ritonavir arm, serum | oral, 30 µg with levonorgestrel, 72 h, steady state, with: ritonavir | 3.87 ± 0.976 ng·h/mL
C[C@H]1Oc2cc(cnc2N)-c2c(nn(C)c2C#N)CN(C)C(=O)c2ccc(F)cc21 | – | healthy adults | oral solution, 100 mg single dose, adjusted geometric mean | 8600 ng·h/mL
Cc1nc2cccc(N)c2c(=O)n1C1CCC(=O)NC1=O (stereo not drawn) | – | healthy adults, plasma | oral, 3 mg, geometric mean, with: fluvoxamine 50 mg twice daily | 1070 ng·h/mL
CCC[C@H](N[C@@H](C)C(=O)N1[C@H](C(=O)O)C[C@@H]2CCCC[C@@H]21)C(=O)O | – | healthy Chinese volunteers, plasma | oral, 4 mg perindopril tert-butylamine, up to 48 h, fasting, with: indapamide 1.25 mg | 108 ± 34.7 ng·h/mL
COc1cc2c(cc1OC)CN(CCc1ccc(NC(=O)c3cc(OC)c(OC)cc3NC(=O)c3cnc4ccccc4c3)cc1)CC2 | – | human, plasma | intravenous infusion, 8 mg/kg, up to 24 h post-infusion | 16600 ng·h/mL and 18800 ng·h/mL and 21800 ng·h/mL and 14800 ng·h/mL

A few entries again:
SMILES | assay | test system | setting | AUC(0-t)
CNC(=O)c1ccc(-c2cnc3ncc(Cc4ccc5ncccc5c4)n3n2)cc1F | – | severe hepatic impairment | oral, 200 mg, geometric mean | 7710 ng·h/mL
CCC[C@H](N[C@@H](C)C(=O)N1[C@H](C(=O)O)C[C@@H]2CCCC[C@@H]21)C(=O)O | – | healthy Chinese volunteers, plasma | oral, 4 mg perindopril tert-butylamine, up to 48 h, fasting, with: indapamide 1.25 mg | 108 ± 34.7 ng·h/mL
